Assay results pooled from the literature.
Lines come from different studies, so protocols differ. Several values in a cell are separate wells, animals, samples, runs or records. Numbers after ± are the reported error.
USP49 ZnF-UBD domain: Ubiquitin carboxyl-terminal hydrolase 49, ZnF-UBD domain (USP49, Homo sapiens, UniProt Q70CQ1)
UniProt Q70CQ1, sequence (whole entry, looked up): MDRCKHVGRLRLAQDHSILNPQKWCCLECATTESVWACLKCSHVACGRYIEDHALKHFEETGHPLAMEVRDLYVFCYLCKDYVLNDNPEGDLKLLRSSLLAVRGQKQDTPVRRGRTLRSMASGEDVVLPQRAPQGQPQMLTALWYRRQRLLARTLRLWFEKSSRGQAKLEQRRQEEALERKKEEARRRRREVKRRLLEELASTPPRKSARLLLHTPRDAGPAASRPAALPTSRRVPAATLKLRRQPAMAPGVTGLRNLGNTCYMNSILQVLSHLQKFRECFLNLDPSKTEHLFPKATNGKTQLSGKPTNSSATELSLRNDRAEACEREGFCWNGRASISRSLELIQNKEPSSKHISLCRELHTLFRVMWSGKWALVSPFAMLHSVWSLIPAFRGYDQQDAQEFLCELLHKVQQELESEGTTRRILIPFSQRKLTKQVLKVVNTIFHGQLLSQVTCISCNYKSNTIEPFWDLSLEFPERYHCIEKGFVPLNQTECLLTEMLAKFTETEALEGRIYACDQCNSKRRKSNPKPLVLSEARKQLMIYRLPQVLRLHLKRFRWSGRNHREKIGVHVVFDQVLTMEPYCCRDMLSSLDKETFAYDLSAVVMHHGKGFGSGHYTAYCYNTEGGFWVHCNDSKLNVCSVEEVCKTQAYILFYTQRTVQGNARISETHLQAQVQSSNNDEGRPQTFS
UniProt P08183, sequence (whole entry, looked up): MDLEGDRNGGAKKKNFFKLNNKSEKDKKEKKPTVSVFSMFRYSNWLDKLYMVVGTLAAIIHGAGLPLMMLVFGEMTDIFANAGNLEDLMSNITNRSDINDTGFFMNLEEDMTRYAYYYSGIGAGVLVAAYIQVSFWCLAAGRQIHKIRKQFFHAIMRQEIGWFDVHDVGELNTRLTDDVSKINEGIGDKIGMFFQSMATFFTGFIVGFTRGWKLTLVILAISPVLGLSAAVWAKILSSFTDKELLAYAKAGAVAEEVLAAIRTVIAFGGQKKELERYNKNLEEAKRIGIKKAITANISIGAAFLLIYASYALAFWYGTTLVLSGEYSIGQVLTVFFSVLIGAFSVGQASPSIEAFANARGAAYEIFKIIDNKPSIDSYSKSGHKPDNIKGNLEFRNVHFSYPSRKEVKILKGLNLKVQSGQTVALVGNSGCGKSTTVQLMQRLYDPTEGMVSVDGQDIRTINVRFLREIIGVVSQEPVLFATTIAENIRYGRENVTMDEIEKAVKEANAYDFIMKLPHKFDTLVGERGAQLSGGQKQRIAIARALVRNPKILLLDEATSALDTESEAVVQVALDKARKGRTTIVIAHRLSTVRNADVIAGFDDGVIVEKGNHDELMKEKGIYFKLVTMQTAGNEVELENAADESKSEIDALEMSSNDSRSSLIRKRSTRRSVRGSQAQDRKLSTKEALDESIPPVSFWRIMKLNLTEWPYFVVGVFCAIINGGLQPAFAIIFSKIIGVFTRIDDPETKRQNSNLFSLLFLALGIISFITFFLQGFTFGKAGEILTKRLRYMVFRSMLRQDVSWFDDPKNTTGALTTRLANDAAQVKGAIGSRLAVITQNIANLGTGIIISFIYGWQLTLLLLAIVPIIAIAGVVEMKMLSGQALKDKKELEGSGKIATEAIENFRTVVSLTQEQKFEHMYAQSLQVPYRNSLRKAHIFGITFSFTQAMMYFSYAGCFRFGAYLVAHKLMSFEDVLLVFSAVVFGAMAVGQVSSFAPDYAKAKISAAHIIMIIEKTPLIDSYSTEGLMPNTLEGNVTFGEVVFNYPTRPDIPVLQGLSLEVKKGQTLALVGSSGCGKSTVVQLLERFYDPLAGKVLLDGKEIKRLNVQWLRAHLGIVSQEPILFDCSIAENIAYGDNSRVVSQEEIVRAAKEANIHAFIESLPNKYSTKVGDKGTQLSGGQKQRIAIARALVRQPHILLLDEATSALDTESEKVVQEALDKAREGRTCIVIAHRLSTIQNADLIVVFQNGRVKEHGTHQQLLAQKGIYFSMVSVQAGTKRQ

Compound	tested on	assay	system	setting	scale	quantity	result
CCOC(=O)C1=C(CN2CCC[C@@H]2C(=O)Nc2ccc(B(O)O)cc2)NC(c2nccs2)=N[C@H]1c1ccc(F)cc1Br	primary human hepatocytes	measured: CYP3A4 mRNA		10 µM, sandwich culture	baseline: rifampicin	CYP3A4 induction	8.78%
c1csc(CNc2cc[nH]n2)c1	human peripheral blood lymphocytes			225 µg/mL, 20 h		numerical aberration cells	0%
CCSc1c(-c2nc3ccccc3s2)c(N)n(NS(=O)(=O)c2ccccc2)c(=O)c1C#N	HEp-2			72 h		maximum non-toxic concentration	120 µg/mL
Fc1cccc(N/N=C/c2ccc(-c3cccc(/C=N/Nc4cccc(F)c4)c3)cc2)c1	A549			15.5 µg/mL		cytotoxicity	not toxic
OCC1=C(F)[C@@H](n2nnc3c(NO)ncnc32)[C@H](O)[C@@H]1O	BHK-D2-Rluc	MTT		48 (unit not given)		CC50	> 100 µM
CC(=O)Nc1cccc(-n2c(=O)n(C3CC3)c(=O)c3c(Nc4ccc(I)cc4F)n(C)c(=O)c(C)c32)c1	LoVo (KRAS G13D)	resazurin		100.00 nM, 72 h	baseline: DMSO	viability fraction	0.349
Nc1nc(NS(=O)(=O)c2ccccc2)nc(-c2ccc(Cl)cc2)c1-c1nc2ccccc2s1	HEp-2	cytotoxicity		72 h		maximum non-toxic concentration	100 µg/mL
COc1cccc2c1C(=O)c1c(O)c3c(c(O)c1C2=O)C[C@@](O)(C(=O)CO)C[C@@H]3O[C@H]1C[C@H](N)[C@H](O)[C@H](C)O1	THLE-2 transduced with Ad-CYP2C9	metabolism-induced cytotoxicity		48 h, 3D Matrigel spots		IC50	4.1 ± 0.5 µM
C=CC(C)(C)c1[nH]cnc1/C=C1/NC(=O)[C@H](C(C)C)NC1=O	L-02	SRB				CC50	7.32 µM
CCCCc1nc2c(N)nc3ccccc3c2n1Cc1ccc(N)cc1	Ramos			up to 30 µM		cytotoxicity	not toxic
COc1cc(C2=CCCc3c2ccc(OC)c3OCc2ccc([N+](=O)[O-])o2)cc(OC)c1OC	A549			4 h anoxic	baseline: oxic IC50 over anoxic IC50	hypoxic cytotoxicity ratio	0.7
C[C@]12CC[C@@H]3c4ccc(O)cc4C[C@@H](CCCCCCCCC[S+]([O-])CCCC(F)(F)C(F)(F)F)[C@H]3[C@@H]1CC[C@@H]2O (stereo partly drawn)	T47D	CCK-8		50 nM	baseline: untreated	viability	74% and 77.1% and 80.6%
COc1ccc(-c2nc(NS(=O)(=O)c3ccccc3)nc(N)c2-c2nc3ccccc3s2)cc1	HEp-2	cytotoxicity		72 h		maximum non-toxic concentration	100 µg/mL
CCC(CC)COC(=O)[C@H](C)N[P@](=O)(OC[C@H]1O[C@@](C#N)(c2ccc3c(N)ncnn23)[C@H](O)[C@@H]1O)Oc1ccccc1	primary human hepatocytes	spare respiratory capacity, Seahorse OCR		4 h		CC50	> 30 µM
CCc1oc2cc(S(=O)(=O)Nc3ccc(S(=O)(=O)Nc4nccs4)cc3)ccc2c1C(=O)c1cc(Br)c(O)c(Br)c1	T47D	annexin V/PI flow cytometry		40 µM, 72 h		necrotic cells	2.16 ± 0.87%
CCCC(CCC)NC(=O)c1ccc2c(c1)OCO2	CHO-WBL			0.56 mg/mL, 3 h, with rat liver S9		relative mitotic index	109%
O=C(O)COc1cnc2ccccc2n1	USP49 ZnF-UBD domain					Kd	> 1 mM
Oc1c(I)cc(Cl)c2cccnc12	LMH chicken hepatoma cells					CC50	33.9 µM
CO[C@@]12[C@H](COC(N)=O)C3=C(C(=O)C(C)=C(N)C3=O)N1C[C@@H]1N[C@@H]12	human peripheral blood lymphocytes	in vitro micronucleus test		0.20 µg/mL, 3 h exposure, -S9, 27 h harvest		cytostasis	33%
CSc1nc(NS(=O)(=O)c2ccccc2)nc(N)c1-c1nc2ccccc2s1	HEp-2	cytotoxicity		72 h		maximum non-toxic concentration	90 µg/mL
CSc1c(-c2nc3ccccc3s2)c(N)n(NS(=O)(=O)c2ccc(C)cc2)c(=O)c1C#N	HEp-2			72 h		maximum non-toxic concentration	110 µg/mL

Compound	tested on	assay	system	setting	scale	quantity	result
Nc1nc(NS(=O)(=O)c2ccccc2)nc(-c2ccccc2)c1-c1nc2ccccc2s1	HEp-2	cytotoxicity		72 h		maximum non-toxic concentration	90 µg/mL
CCOC(=O)c1cc(C#N)c(=O)n(NS(=O)(=O)c2ccc(C)cc2)c1N	HEp-2			72 h		maximum non-toxic concentration	90 µg/mL
O=C(O)Cn1cc2ccccc2n1	USP49 ZnF-UBD domain					Kd	> 1 mM
COc1ccc2c(c1NC(=O)OC(C)c1ccc([N+](=O)[O-])s1)CCC=C2c1cc(OC)c(OC)c(OC)c1 (stereo not drawn)	A549			4 h anoxic	baseline: oxic IC50 over anoxic IC50	hypoxic cytotoxicity ratio	4.8
Cc1cc(C)c(CNC(=O)c2cc(Cl)c3c(c2C)O[C@@](C)([C@H]2CC[C@H](N(C)C)CC2)O3)c(=O)[nH]1	Caco-2			3 µM		Papp A to B	0.405 ± 0.031 ×10⁻⁶ cm/s
CC[C@]1(O)C[C@@H]2CN(CCc3c([nH]c4ccccc34)[C@@](C(=O)OC)(c3cc4c(cc3OC)N(C)[C@H]3[C@@](O)(C(=O)OC)[C@H](OC(C)=O)[C@]5(CC)C=CCN6CC[C@]43[C@@H]65)C2)C1	human peripheral blood lymphocytes	CBPI, micronucleus test		5 ng/mL, 24 h, without S9	baseline: vehicle	cytotoxicity	5%
CCCCCCNc1nc(NC2CCN(C)CC2)c2cc(OC)c(OC)cc2n1	differentiated THP-1			72 h	baseline: THP-1 CC50 over EC50	selectivity index	0.5
CCSC(SCC)=C(C#N)c1nc2ccccc2s1	HEp-2			72 h		maximum non-toxic concentration	110 µg/mL
CC(=O)OC[C@H]1O[C@@H]([S-])[C@H](OC(C)=O)[C@@H](OC(C)=O)[C@@H]1OC(C)=O.CCP(CC)CC.[Au+]	differentiated THP-1			72 h	baseline: THP-1 CC50 over EC50	selectivity index	1
Nc1n[n+]([O-])c2ccccc2[n+]1[O-]	A549			4 h anoxic	baseline: oxic IC50 over anoxic IC50	hypoxic cytotoxicity ratio	> 31.6
CC(C)C[C@@H](C=O)NC(=O)[C@H](CC(C)C)NC(=O)[C@H](CC(C)C)NC(=O)OCc1ccccc1	LMH chicken hepatoma cells					CC50	135 µM
CC[C@H]1[C@@H](O)[C@@H]2[C@H](CC[C@]3(C)[C@@H]([C@H](C)CCNC(=O)NS(=O)(=O)c4ccc(C(C)(C)C)cc4)CC[C@@H]23)[C@@]2(C)CC[C@@H](O)C[C@@H]12	ATP-dependent translocase ABCB1 (ABCB1, Homo sapiens, UniProt P08183)		human, plasma	dose not given, median, alone		Tmax	4 h
Cc1ccc(-c2nc(N)nc(N)c2-c2nc3ccccc3s2)cc1	HEp-2	cytotoxicity		72 h		maximum non-toxic concentration	110 µg/mL
CNCCCN1c2ccccc2CCc2ccccc21	HepaRG	cytotoxicity, CellTiter-Glo		24 h		EC50	72.9 µM
CCCCCCCCN(CCC(=O)Nc1ccccc1)C(=O)[C@@H]1CCCN1	Lmna+/+ mouse fibroblasts	MTT		2 µM, 72 h	baseline: vehicle	viability	114 ± 10%
COc1ccc2c(Cc3ccccc3F)c3n(c(=O)c2c1OC)CCc1cc2c(cc1-3)OCO2	NIH3T3	cytotoxicity, CCK-8		24 h		IC50	7.16 µM
Cc1cc(C(=O)NC(C)(C)COc2cccc3c2C(N)=NS(=O)(=O)N3)cc(C)n1	human peripheral blood lymphocytes	CBPI, preliminary test		0.6 µg/mL, 24 h	baseline: vehicle control	cytotoxicity	9%
COc1ccc(-c2nc(N)nc(N)c2-c2nc3ccccc3s2)cc1	HEp-2	cytotoxicity		72 h		maximum non-toxic concentration	90 µg/mL
Clc1cccc(COc2ccccc2CNCc2ccccc2)c1	HEK293					cytotoxic concentration	> 12.5 µM
CC[C@]1(O)C[C@H]2CN(CCc3c([nH]c4ccccc34)[C@@](C(=O)OC)(c3cc4c(cc3OC)N(C=O)[C@H]3[C@@](O)(C(=O)OC)[C@H](OC(C)=O)[C@]5(CC)C=CCN6CC[C@]43[C@@H]65)C2)C1	CHP-212 resistant subline R2 (heterozygous USP7 V517F)	cell viability		10000 nM		viability	15.8% and 20.7% and 15.7%
COc1ccc(-c2nc(NS(=O)(=O)c3ccc(C)cc3)nc(N)c2-c2nc3ccccc3s2)cc1	HEp-2	cytotoxicity		72 h		maximum non-toxic concentration	90 µg/mL
